Results from different studies.
Each line is one published result; not all experiments were run side by side. Numbers after ± are the reported error.

Structure (SMILES)	test system	setting	tissue uptake
N=C(N)NCc1ccc(C(=O)NCCCC[C@H](NC(=O)N[C@@H](CCC(=O)O)C(=O)O)C(=O)O)cc1[211At]	SCID mouse, PC-3 xenografts, bone	14 h	0.14 ± 0.07 %ID/g
CCNc1cc2[o+]c3cc(NCC)c(C)cc3c(-c3ccccc3C(=O)OCCOCC[18F])c2cc1C	rat, liver	15 min	1.01 ± 0.14 %ID/g
O=C(O)CC[C@H](NC(=O)O[C@@H](CCCCNC(=O)c1ccc([18F])cc1)C(=O)O)C(=O)O	mouse, PC-3 PIP/flu xenografts, large intestine	180 min	0.16 ± 0.05 %ID/g
COc1cc2ncnc(Oc3cccc(N[11C](=O)Nc4cc(C(C)(C)C(F)(F)F)on4)c3)c2cc1OC	Balb/c nude mouse, female, A375 melanoma xenograft, spleen	6.6 MBq, 60 min	3.35 ± 0.15 %ID/g
COc1cc(C(=O)NCCOCCOCCOCCNC(=O)c2ccc([18F])nc2)ccc1NC(=O)C1NC(CC(C)(C)C)C(C#N)(c2ccc(Cl)cc2F)C1c1cccc(Cl)c1F (centres unmarked)	athymic male mice, SJSA-1 xenograft, bladder	2 h	1.15 ± 0.63 %ID/g
N=C(N)NCc1ccc(C(=O)NCCCC[C@H](NC(=O)CCCCCCC(=O)NCCCC[C@H](NC(=O)N[C@@H](CCC(=O)O)C(=O)O)C(=O)O)C(=O)O)cc1[211At]	SCID mouse, PC-3 xenografts, stomach	21 h	9.36 ± 2.18 %ID/g
O=C(c1ccc(F)cc1)C1CCN(C2Cc3c(cccc3OCC[18F])CC2O)CC1 (single isomer, unassigned; (-))	Sprague-Dawley rat, male, liver	intravenous, dose not given, 30 min	0.523 ± 0.044 %ID/g
CN[C@](C)(C[18F])C(=O)O	SCID mouse SK-OV-3 xenograft, brain	120 min, post injection	0.2 ± 0.04 %ID/g
N=C(N)NCc1ccc(C(=O)NCCCC[C@H](NC(=O)N[C@@H](CCC(=O)O)C(=O)O)C(=O)O)cc1[131I]	SCID mouse, PC-3 xenografts, muscle	1 h	0.42 ± 0.06 %ID/g
C=Cc1cc(O)cc2nc(-c3ccc(O)c([76Br])c3)oc12	female C57BL/6 mouse, spleen	1 h, high dose, with: estradiol 20 µg blocking	0.09 ± 0.02 %ID/g
CCCC[C@H](NC(=O)CCOCCOCCNC(=O)CN1CCN(CC(=O)O)CCN(CC(=O)O)CCN(CC(=O)O)CC1)C(=O)N[C@H]1CC(=O)NCCCC[C@@H](C(N)=O)NC(=O)[C@H](Cc2c[nH]c3ccccc23)NC(=O)[C@H](CCCNC(=N)N)NC(=O)[C@@H](Cc2ccccc2)NC(=O)[C@H](Cc2c[nH]cn2)NC1=O [gallium-68 labelled]	C57BL/6J mice male B16-F10 tumour, stomach	1 h post injection, unblocked	0.4 ± 0.2 %ID/g
